Published values pooled from the literature.
Each line is one published result; not all experiments were run side by side. ± gives the spread as reported. Ends that are not written are not given here.
B1: antibody (Homo sapiens); chain 1 QVQLVQSGSELKKPGASVKVSCKASGYTFTSYAMNWVRQAPGQGLEWMGWINTNTGNPTYAQGFTGRFVFSLDTSVSTAYLQISSLKAEDTAVYYCARGQPPVGWTFDYWGQGTLVTV; chain 2 QSALTQPPSASGSPGQSVTISCTGTSSDVGGYNYVSWYQQHPGKAPKLMIYEVSKRPSGVPDRFSGSKSGNTASLTVSGLQAEDEADYYCSSYAGSNNLVFGGTKLTVL
B2: protein R6A/R10A (Xanthomonas citri, UniProt A0AAI8ETV0); chain MIQDTARAPARQPTDLLPVIDTLSEVQIGRVGNVSETGMLLLASVPLHDDALYQLRFSLPERVGRATEIDVGVHLLWSEAAHAPGQAWAGFRFLTMSEPHRQRLRAWIAEEHLAG

| Substance | tested on | test | system | conditions | how to read | measurement | result |
| --- | --- | --- | --- | --- | --- | --- | --- |
| THBS1 (Homo sapiens, UniProt P07996) | env gp160 (HIV-1) | radioligand binding |  | apparent, Scatchard |  | Kd | 0.25 µM |
| Spike receptor binding domain (SARS-CoV-2) | ACE2 recombinant ectodomain 18-740 (Homo sapiens, UniProt Q9BYF1) | SPR |  |  |  | koff | 0.038 s⁻¹ |
| B1 (antibody) | SARS-CoV-2 spike peptide fragment (SARS-CoV-2) | BLI | antibody |  |  | Kd | 0.0032 µM |
| FolB (Mycobacterium tuberculosis, UniProt P9WNC5) | Nc1nc2c(c(=O)[nH]1)N=C([C@H](O)[C@@H](O)CO)CN2 | steady-state kinetics |  | pH 7, 25 °C |  | kcat/Km | 38000 ± 6900 M⁻¹ s⁻¹ |
| EVIKKDTPYKKRKFPYKSECLKACATSFTGGDESRIQEGKPGFFKCTCYFTTG (protein mature, disulfides Cys20-Cys46, Cys24-Cys48 (Scolopendra subspinipes mutilans, UniProt A0A2L0ART2); disulfides Cys20-Cys46, Cys24-Cys48) | KCNQ4 (Homo sapiens, UniProt P56696) | channel inhibition, inhibitor | peptide | 10 µM |  | onset time constant | 0.086 s |
| ORF45 fragment (Kaposi's sarcoma-associated herpesvirus) | H2A/H2B dimer (Homo sapiens) | magnetic tweezers |  | inner wrap |  | rupture force | 14 pN |
| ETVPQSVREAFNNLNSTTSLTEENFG (VP35 residues 190-215 (Zaire ebolavirus); FITC label) | MIB2 1-836 (Homo sapiens, UniProt Q96AX9) | FP | peptide |  |  | Kd | 5.4 ± 0.9 µM |
| LYDKLVSSF |  | AIM | peptide, CD8+ T cells from PBMC, human donors | dose not given |  | response magnitude per positive donor | 112 |
| jingzhaotoxin-III (spider) | SCN5A domain II S3-S4 extracellular region, Gal4 activation domain fusion (Homo sapiens) | sodium current, inhibitor, whole-cell patch clamp | HEK293 |  |  | IC50 | 0.297 µM |
| p2o (Trametes ochracea, UniProt Q7ZA32) | CN(C)c1ccc2nc3ccc(N(C)C)c([N+](=O)[O-])c3[s+]c2c1 | steady-state kinetics |  | pH 6.5, 22 °C, apparent |  | kcat/Km | 13000 M⁻¹ s⁻¹ |
| B2 (protein R6A/R10A) | hemK (Xanthomonas citri, UniProt A0AAI7ZDL3) | ITC |  |  |  | Kd | 21.2 ± 51.5 µM |
| BKRF4 fragment D81A/W84A/P86A/Y94A (Epstein-Barr virus) | H2A/H2B dimer (Homo sapiens) | magnetic tweezers |  |  |  | unwrapping force of outer wrap | 8 pN |
| PSIP1 D366N (Homo sapiens) | HIV-1 integrase mature (HIV-1) | HIV-1 integration into naked DNA, activator |  |  | baseline: wild-type LEDGF/p75, higher = stronger stimulation | integration stimulation | 12% |
| DASGKPVPY |  | AIM | peptide, CD8+ T cells from PBMC, human donors | dose not given |  | response magnitude per positive donor | 113 |
| QPLRKLCILHRNPGRCYQKIPAFYYNQKKKQCEGFTWSGCGGNSNRFKTIEECRRTCIRK (dendrotoxin I; ends and bridges not checked; cysteine pairing not given here; sequence looked up) | Calcium-activated potassium channel subunit alpha-1 (Kcnma1, Rattus norvegicus, UniProt Q62976) | blocker, planar bilayer single channel |  | with: BP | baseline: singly occupied channel | ΔΔG‡ association | -0.2 kcal/mol |
| RTCKDLIPVSECTDIRCRTSMKYRLNLCRKTCGSC (HmK mature (Heteractis magnifica, UniProt O16846)) | KCNA3 (Homo sapiens, UniProt P22001-1) | channel current block, two-electrode voltage clamp | peptide |  |  | koff | 0.0034 s⁻¹ |
| MnTx-1 mature (Pterinochilus murinus, UniProt C0HMD2) | KCNA2 (Homo sapiens, UniProt P16389-1) | K+ current inhibition, inhibitor, patch-clamp |  | whole-cell |  | IC50 | 0.171 µM |
| ACE2/pIgR VHH6 Fc fusion ACE2 , Fc at C-terminus (Homo sapiens) | spike RBD RBD (SARS-CoV-2, UniProt P0DTC2) | BLI |  |  |  | koff | 1.4e-05 s⁻¹ |

Some of these lines once more:
| Substance | tested on | test | system | conditions | how to read | measurement | result |
| --- | --- | --- | --- | --- | --- | --- | --- |
| FolB (Mycobacterium tuberculosis, UniProt P9WNC5) | Nc1nc2c(c(=O)[nH]1)N=C([C@H](O)[C@@H](O)CO)CN2 | steady-state kinetics |  | pH 7, 25 °C |  | kcat/Km | 38000 ± 6900 M⁻¹ s⁻¹ |
